Experimental data of several laboratories.
A part holds a random share of what one study measured. Changes are numbered by the printed parent chain.

Set 1 — technique: competition protein-binding microarray; form: double-stranded DNA, one strand shown; matrix: in vitro; tested at: 2 µM; together with: Cbf1 competitor, 0.05 µM; direction: higher = stronger binding; measurement: fluorescence intensity; all sequences stand within: … GTCTTGATTCGCTTGACGCTGCTG
Target: Phosphate system positive regulatory protein PHO4, full length, GST-tagged (PHO4, Saccharomyces cerevisiae, UniProt P07270, residues 1-312)
Notes: whole 60-bp probe, lowest competitor level
Construct (chain): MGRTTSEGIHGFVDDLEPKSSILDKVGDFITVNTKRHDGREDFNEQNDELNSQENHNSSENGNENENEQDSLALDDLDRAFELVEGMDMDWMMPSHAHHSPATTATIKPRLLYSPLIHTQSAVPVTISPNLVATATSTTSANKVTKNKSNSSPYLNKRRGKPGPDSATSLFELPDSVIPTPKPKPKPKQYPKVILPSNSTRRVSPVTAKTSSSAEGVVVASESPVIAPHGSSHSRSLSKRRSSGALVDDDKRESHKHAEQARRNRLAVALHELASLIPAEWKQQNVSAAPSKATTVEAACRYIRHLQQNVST
TGCCAAAATCTGCCTCAGGTGACAAGCCATTTTTCC: 3140 a.u.
CTACAGACTTAGCACCACATGGGCACCACCAAGGTT: 11500 a.u.
CAAAGGTGAAATTGCCGCGTGGCCGCTAGATCCTGC: 9520 a.u.
AACAATCTTCATAGCAACGTGAGTCTTGTTTACCAT: 11100 a.u.
AGTCTCTTTTAGTTCACCGTGACGGTACGCACTGAT: 5300 a.u.
GTTTCTCAGATTCTGCACATGGTACTTGATCTTGGT: 11300 a.u.
AAAGCGGTAATTTGCACCGTGGGTGCAGATATCTAT: 9420 a.u.
AGTTGATTTTTTTTTCTCGTGGTGAGAGATAAATAA: 6840 a.u.

Set 2 — technique: protein-binding microarray; form: double-stranded DNA, one strand shown; matrix: in vitro; tested at: not given; direction: higher = stronger binding; measurement: E-score
Target: Transcriptional repressor CTCF (CTCF, Homo sapiens, UniProt P49711, residues 1-727, full length assumed)
Notes: k-mer, scored over probes, only values ≥0.25
Target sequence (chain): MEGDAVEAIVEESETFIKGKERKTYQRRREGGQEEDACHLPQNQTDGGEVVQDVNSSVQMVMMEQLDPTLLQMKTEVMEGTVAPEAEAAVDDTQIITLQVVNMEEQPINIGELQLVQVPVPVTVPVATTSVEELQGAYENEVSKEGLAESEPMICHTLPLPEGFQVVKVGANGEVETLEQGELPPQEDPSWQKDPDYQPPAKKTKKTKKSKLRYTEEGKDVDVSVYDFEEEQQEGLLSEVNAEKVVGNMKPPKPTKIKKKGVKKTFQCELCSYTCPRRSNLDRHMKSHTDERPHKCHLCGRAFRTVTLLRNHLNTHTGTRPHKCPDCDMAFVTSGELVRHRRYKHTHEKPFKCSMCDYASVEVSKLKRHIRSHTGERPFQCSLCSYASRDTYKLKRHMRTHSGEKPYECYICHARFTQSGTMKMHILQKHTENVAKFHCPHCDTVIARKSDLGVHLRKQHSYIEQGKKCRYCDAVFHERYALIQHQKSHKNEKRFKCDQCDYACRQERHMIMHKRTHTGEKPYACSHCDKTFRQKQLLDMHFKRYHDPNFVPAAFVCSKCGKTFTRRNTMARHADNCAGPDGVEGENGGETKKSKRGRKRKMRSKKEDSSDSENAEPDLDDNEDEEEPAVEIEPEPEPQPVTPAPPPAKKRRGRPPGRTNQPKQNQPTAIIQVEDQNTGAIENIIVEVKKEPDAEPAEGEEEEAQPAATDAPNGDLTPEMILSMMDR
CTTTATTA: 0.275
ATGCAAAA: 0.295
ATACTATA: 0.317
AATTGTAT: 0.262
CAATTTTA: 0.274
GATATTTA: 0.256
GCGAAAAA: 0.254
CGGCGCAC: 0.276
CAATACAA: 0.309
ACGTAATA: 0.312

Set 3 — target: CCND2, cyclin fold, Cln2 fusion (human); technique: yeast growth competition, sequencing; matrix: yeast; notes: weak parent motif; baseline: not given; direction: higher = stronger binding; measurement: normalised enrichment score
Starting sequence: CDKN1B docking peptide (human); PSACRNLFGPVDH; partner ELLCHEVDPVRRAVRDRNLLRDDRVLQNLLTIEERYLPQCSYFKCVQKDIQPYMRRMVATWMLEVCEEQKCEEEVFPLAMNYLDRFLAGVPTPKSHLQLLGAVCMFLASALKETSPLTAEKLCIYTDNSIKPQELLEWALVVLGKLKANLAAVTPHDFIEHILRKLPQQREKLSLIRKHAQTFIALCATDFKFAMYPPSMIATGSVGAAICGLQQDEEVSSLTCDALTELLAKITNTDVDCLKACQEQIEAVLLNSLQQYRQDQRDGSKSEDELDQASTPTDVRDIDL
V11L: 0.285
C4H: 0.0982
C4N: 0.225
F8I: 0.434
F8D: -0.11
P1I: -0.183
L7H: 0.0616
R5E: 0.0833

Single results of other studies
PhoQ, residues 284 288 289 292 302 303 SCCLKL  fold induction (PhoP, residues 12 14 15 18 19 VHSCL (Escherichia coli, UniProt P23836); Sort-seq, refers to: YFP reporter; E. coli; PhoQ-PhoP variant library, together with: 10 µM Mg2+; baseline: high Mg2+ state, higher = stronger signaling): 3.81

A few entries again (set 1):
CTACAGACTTAGCACCACATGGGCACCACCAAGGTT: 11500 a.u.
CAAAGGTGAAATTGCCGCGTGGCCGCTAGATCCTGC: 9520 a.u.
AACAATCTTCATAGCAACGTGAGTCTTGTTTACCAT: 11100 a.u.
